Experimental data from different studies.
Each line is one published result; not all experiments were run side by side. “And” joins repeats or separate records; there may be more than shown.
Target: Protein kinase C epsilon type (PRKCE, Homo sapiens, UniProt Q02156)

SMILES	assay	test system	setting	scale	quantity	value
CCN1CCN(Cc2ccc(C(=O)Nc3ccc(C)c(NCc4cnc5[nH]ccc5c4OC)c3)cc2C(F)(F)F)CC1	binding, competition with immobilised ligand	–	1 µM	–	remaining binding	100%
CC(=O)N1c2ccc(-c3ccc(CNC(=O)c4cn5cc(-c6cnc(N)nc6)nc(N6CCOCC6)c5n4)cc3)cc2CC[C@@H]1C	KINOMEscan	–	10 µM	–	remaining binding	84%
C=CC(=O)Nc1cccc(-c2cnc3[nH]cc(C(=O)NC(C)(C)C)c3n2)c1	kinase activity	–	0.1 µM	–	inhibition	12% and 10%
CNC(=O)C[C@H](Cc1ccc(C#N)cc1)NC(=O)c1cc(-c2ccc(CN[C@H](C)c3ccc(C)cc3)o2)ccc1Cl	enzyme activity, inhibitor	–	1 µM	–	activity vs control	102%
COc1c(Cl)cccc1Nc1c(-c2ccncc2C#C[C@@]2(C)CCCN2C(=O)/C=C/CN(C)C)[nH]c2c1C(=O)NCC2	cell-free assay, competition with immobilised ligand	–	3 µM	–	remaining binding	81%
CNC1C[S+]2CC[S+]3CC[S+](C1)[Ru-4]321([N]=C=S)[n]2c3ccc(OC)cc3c3c4c(c5cc(F)c[n+]1c5c32)C(=O)NC4=O (stereo not drawn)	KinomeScan	–	0.1 µM	reference: untreated	remaining binding	68%
C=CC(=O)N1CCc2ccc(-n3c(=O)ccc4cnc5ccc(-c6cnn(C)c6)cc5c43)cc21	KINOMEscan	–	1 µM	reference: DMSO control	remaining binding	87%
COc1c(OCCCN2CCOCC2)ccc2c1N=C(NC(=O)c1cnc(N)nc1)N1CCN=C21	kinase activity, inhibitor	–	1 µM	reference: untreated control	remaining activity	95%
O=C(Cc1ccc(OCc2ccccc2)cc1)NC1(C(=O)O)CCN(C(=O)c2ccc(-c3cccc(Cl)c3)cc2)CC1	enzyme activity, inhibitor	–	10 µM	–	activity vs control	103%
CN1CCN(Cc2ccc(NC(=O)c3cccc(C#Cc4cnc(N)c5ncccc45)c3)cc2C(F)(F)F)CC1	cell-free assay, competition with immobilised ligand	–	0.5 µM	–	remaining binding	65%
C=CC(=O)Nc1cc(-c2nn(C3CCN(CCNC(=O)[C@H](C)CCC45CC6CC(CC(C6)C4)C5)CC3)c3ncnc(N)c23)ccc1Oc1ccccc1	inhibitor, KiNativ profiling	biochemical	2 µM	–	inhibition	15.6%
C=C1CCCCCCCCCC(CO)C1=O (stereo not drawn)	cell-free assay	–	10 µM	–	remaining signal	100%
CNC(=O)C1CCN(c2cc(C)c(F)cc2NC(=O)c2ccc(-c3cc(O)ccc3C)c(C)c2)CC1	binding, competition with immobilised ligand	–	1 µM	–	remaining binding	100%
O=c1c(-c2ccc(Cl)c(CN3CCOCC3)c2)coc2cc(O)ccc12	enzyme activity, inhibitor	–	1 µM	–	remaining activity	104%
NC(=O)[C@@H](O)C[C@H]1CCc2sc3ncnc(O[C@H]4CC[C@H](N5CCOCC5)CC4)c3c21	enzyme activity, inhibitor	–	10 µM	–	inhibition	-6%
Nc1ncc(-c2cc(-c3cnn(CC(F)(F)F)c3)ncc2F)nc1C(=O)NC1CNCC(F)C1 (stereo not drawn)	enzyme activity	–	1 µM	reference: DMSO control	remaining activity	92.7%
COc1ccc(NC(=O)Nc2ccc3c(c2)C(=O)N(C(C)CO)CC(C)C(CN(C)Cc2ccc4c(c2)OCO4)O3)cc1 (stereo not drawn)	kinase activity, KinaseProfiler	–	0.03 µM, species human	reference: control	remaining activity	96%
Cc1ccc(-c2c(/C=C(\C#N)C(=O)NC(C)C)n(CCCO)c3ncnc(N)c23)cc1	cell-free assay, competition with immobilised ligand	–	1 µM	–	remaining binding	88%

A few entries again:
SMILES	assay	test system	setting	scale	quantity	value
CCN1CCN(Cc2ccc(C(=O)Nc3ccc(C)c(NCc4cnc5[nH]ccc5c4OC)c3)cc2C(F)(F)F)CC1	binding, competition with immobilised ligand	–	1 µM	–	remaining binding	100%
CC(=O)N1c2ccc(-c3ccc(CNC(=O)c4cn5cc(-c6cnc(N)nc6)nc(N6CCOCC6)c5n4)cc3)cc2CC[C@@H]1C	KINOMEscan	–	10 µM	–	remaining binding	84%
C=CC(=O)Nc1cccc(-c2cnc3[nH]cc(C(=O)NC(C)(C)C)c3n2)c1	kinase activity	–	0.1 µM	–	inhibition	12% and 10%
